Assay results of several laboratories.
Numbered parts are unrelated; each lists some results of a single study. Changes are numbered by the printed parent chain.

Sample 1
Target: Interferon regulatory factor 5, full length, phosphomimetic (IRF5, Homo sapiens, UniProt Q13568-2, residues 1-514, K96S/S451D/S453D/S456D/S462D)
Technique: protein-binding microarray
Molecule type: double-stranded DNA, one strand shown
Sample: in vitro
Tested at: 250 nM
Setting: 60-bp whole probe
With: salmon DNA 0.4 mg/ml
Baseline: random background probes
Reading: higher = stronger binding
Shared flanks, not repeated: GCCTAGCAC … GTCTTGATTCGCTTGACGCTGCTG
Strand	log fluorescence [z-score]
TTAGGTTTCGACTCTGGGTTAGTGCTA	6.37
GACGATTCCAGTTTCTAGACGTGCTAG	1.27
TCATCTTTATGCACTCTTACTGTGCTA	0.896
TTTACTTTCTACGTCTGATTGTGCTAG	4.34
GCCGGTTTCGGTCTCGGGACGTGCTAG	10.2
GACGATATCGGGTTTCGAGATGTGCTA	4.08
TCATGTCTGTGTCACAGAGAGTGCTAG	0.198
TCATGCTTCGAGATCTCACTGTGCTAG	0.215
GGGTGAATGTGTCTTAAATAGTGCTAG	-0.285
GACGGTTTCGAATTTCGGGACGTGCTA	4.92
GACGGTATCCGGTATCGGGACGTGCTA	0.995
GACGTACTGAGTCTCGAGACGTGCTAG	-0.274
GACGGACTGGGACTTGGGACGTGCTAG	-0.875
TTAGGACTGGGTATCGGTAAGTGCTAG	2.75
ACAGATGAGGAACCAAGGCCGTGCTAG	-0.246
TCAAACATCATTGTCATACTGTGCTAG	0.213
CCAGTTTTCTTTTCATTACTGTGCTAG	2.26
GACGATTTCGGGACTGGCGACGTGCTA	1.37
CTTTGCCTCATCTTGCAGGTAGTGCTA	0.0837
GAATGTCCTCCTCTCTCTTTGTGCTAG	-0.061
TTAGATCTCAGTCTCGATTTGTGCTAG	0.789
TTCCTTCTTGAACTCTTTACGTGCTAG	0.932
TTAGATCTCAGACTGGGTTAGTGCTAG	-0.167
TTAGGTTTCCTACTGATTTAGTGCTAG	0.519
GACGATATCGGGATTCGAGACGTGCTA	1.25

Sample 2
Target: Prothrombin, mature alpha-thrombin (F2, Homo sapiens, UniProt P00734)
Technique: aptamer microarray, sandwich
Molecule type: DNA with 2'F-ANA
Sample: in vitro
Tested at: 200 nM
Setting: whole 15-mer aptamer, many near background
With: Cy3 exosite-II aptamer, 400 nM
Reading: higher = stronger binding
Strand: GGTTGGTGTGGTTGG
Modification	mean fluorescence intensity [a.u.]
2'F-ANA at 1 5 7 9 11 14	48.6
2'F-ANA at 10 12 13 14 15	137
2'F-ANA at 3 4 6 8 9 10 11 15	206
2'F-ANA at 1 2 4 5 6 8 13 15	53.3
2'F-ANA at 2 3 7 10 12 13 14	317
2'F-ANA at 2 5 6 9 14	44.3
2'F-ANA at 3 6 7 12 13 14	608
2'F-ANA at 2 4 8 9 10 12 14	74.8
2'F-ANA at 1 5 6 7 8 13	67.8
2'F-ANA at 1 2 4 5 6 7 10 12 14 15	49.4
2'F-ANA at 1 3 5 7 8 9 12 14 15	50.4
2'F-ANA at 1 3 4 5 7 8 9 11 12 13 15	75.3
2'F-ANA at 1 2 4 6 7 11 12 14 15	80
2'F-ANA at 1 4 5 7 9 10 13 14	49.1
2'F-ANA at 1 4 8 11 12	295
2'F-ANA at 1 2 3 5 6 8 9 10 11 13 15	46.9
2'F-ANA at 4 5 7 9 10 14	47.6
2'F-ANA at 1 3 4 5 6 7 8 10 12 13	63.5
2'F-ANA at 2 4 5 6 8 9 15	67.9
2'F-ANA at 3 5 6 8 9 11 13 14	57.2
2'F-ANA at 1 7 8 10 11 14	48.2
2'F-ANA at 2 4 7 8 9 10 11 14 15	75.3
2'F-ANA at 1 3 8 9 10 13 15	130

Sample 3
Target: CCNF, cyclin fold, Cln2 fusion (human)
Technique: yeast growth competition, sequencing
Sample: yeast
Setting: strong parent motif
Baseline: not given
Reading: higher = stronger binding
Starting sequence: CDKN1B docking peptide (human); PSACRNLFGPVDH
Variant	normalised enrichment score
PSACRNLFGQVDH [P10Q]	6.44
PSACINLFGPVDH [R5I]	-0.233
PSACRNYFGPVDH [L7Y]	0.365
PSACRNTFGPVDH [L7T]	-0.144
PSACRNLFGPVWH [D12W]	7.68
PSACVNLFGPVDH [R5V]	0.864
PSACRNLFGNVDH [P10N]	6.67
SSACRNLFGPVDH [P1S]	6.2
PSACRNLFGWVDH [P10W]	7.99
PSACRNLFGPVDL [H13L]	6.77
PSACRNLFGPSDH [V11S]	7.21
PSACRNLQGPVDH [F8Q]	0.111
PSACANAFGPVDH [R5A L7A]	-0.215
PSACRNLFGEVDH [P10E]	6.72
PSACRNLWGPVDH [F8W]	1.43
PSACRNLTGPVDH [F8T]	0.481
PSAFRNLFGPVDH [C4F]	3.18
PSWCRNLFGPVDH [A3W]	4.57
PSACRNLFGPVDV [H13V]	6.88
DSACRNLFGPVDH [P1D]	3.4
PQACRNLFGPVDH [S2Q]	7.06
PCACRNLFGPVDH [S2C]	5.04
PSACRNLFGPVDR [H13R]	7.79
PSAWRNLFGPVDH [C4W]	2.09
PSACRNLFGPVAH [D12A]	7.76

Sample 4
Target: Histone acetyltransferase KAT6A, both winged helices, GST fusion (KAT6A, Homo sapiens, UniProt Q92794, residues 1-181)
Technique: protein binding microarray
Molecule type: double-stranded DNA, one strand shown
Sample: in vitro
Tested at: not given
Setting: 8-mer, flanks averaged, mean of 2 arrays, mostly near background
Baseline: not given
Reading: higher = stronger binding
Construct (chain): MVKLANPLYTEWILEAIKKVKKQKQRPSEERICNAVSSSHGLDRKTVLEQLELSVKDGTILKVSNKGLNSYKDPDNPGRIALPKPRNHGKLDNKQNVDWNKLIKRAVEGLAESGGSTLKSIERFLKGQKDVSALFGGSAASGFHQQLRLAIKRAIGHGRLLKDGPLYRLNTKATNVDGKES
Strand	E-score
ACCACTCT	-0.196
GGGCAGAC	0.0774
ACCCCGCT	0.159
GAAGTACC	0.122
ATAGTAAA	-0.104
ACGATACC	-0.00581
AGTGCCAT	-0.144
CAGCCGCG	0.274
CGCATGAG	0.0772
ATCCCTTC	-0.158
CACCCGAC	0.122
TAACTTCA	-0.0979
ATGGAAGC	-0.0683
CCATCATC	-0.0865
CTAGATAA	-0.288
ACCTTTGG	-0.223
CATACCAC	-0.0135
CGAGTGGA	-0.144
AGGCTCCG	0.0525
ATATTCCG	0.138
AGGTGACC	-0.107
GTAATATA	0.0222
CCGTAACG	0.288
ACGTACTA	-0.23
AGGAAGGC	-0.0704

Sample 5
Target: RNA binding protein fox-1 homolog 2, RRM domain, GST-SBP tag (RBFOX2, Homo sapiens, UniProt O43251-10, residues 100-194)
Technique: RNA Bind-n-Seq
Molecule type: RNA
Sample: in vitro
Tested at: 365 nM
Setting: natural RNA segment, single round, ends assumed
Baseline: no-protein control
Reading: higher = stronger binding
Shared flanks, not repeated: GGGAGUUCUACAGUCCGACGAUC … UGGAAUUCUCGGGUGCCAA
Construct (chain): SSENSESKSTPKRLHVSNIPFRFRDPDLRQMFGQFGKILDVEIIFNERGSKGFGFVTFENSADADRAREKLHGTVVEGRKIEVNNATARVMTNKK
Strand	RBNS enrichment (R)
CUUCAGUCCCUCAGGCUGGCAGCCGCUGCAGGUACCUGCCUGGGGGGGCCUGGCAGCCAUGGAGAAGGCUGAGAGGCAGAAGGACACGGGGUCUUCCUGCCUCACCACCU	0.58
CAUUUCCCAGGUUAUGCUCUUUUCUUUCUCAGGGUCCUCUUUGGUGGGCAGCCACUCCCCGAGAUGUUGCCAUCAGUUUUCUGCAGUCCAAAGAGGGUAUGGUUAGGUAC	0.447
UUAAUUCCUAUCUGCUUCCUAGCUGAUAAAGCUUAGAAAAGGCAGUUAUUCCUUCUUUCCAACCAGCUUUGCUCGAGUUAGAAUUUUGUUAUUUUCAAAUAAAAAAUAGU	0.362
CCCCAAAGCCCUGUGAACUGCCUGCUGUCCUGUGAACUGCCUGCUGCCCUGUGAGGUGUGGGAGCCCUGAUGCUGCCGUGUGAUGUUUCAAUAAAGGUGGAUCUCACUGU	1
UAUAAAUUAAUCCAGGUUGUGUUAAUACAGCAGUUUUCCUAGGCCCAAAAGGUUACUCUCAUAACAUAAGCUAGCCCCUUCCGGAAGUCAUGGUGGUGGGUUUCUAUCAU	0.286
AUGCCCUGCCGUGGUGGCAGCUGGGGCUGUGGAUGGGAGGGGUCCCCAACAUGGAUGUGUUGCCCCUCCUCCGCAUGCCAACGCAGUUCAUGUACAAGGCCCCUCUGCAA	1.7
ACCAUAAUCCAGUGGGGGUGACUGGGUGCACACCUGCCCAGGUGAACACAGCGGCUGCCAGUCUCCUGGUCCCGAGAGGAGGUGGGGCCUGGCCCUGGCUCCCUCCAACC	0.171
UGUUAAUUACAAAGAGAAAGAAUUGUCAUAGCAUCUUAUUUUGUUCCUAGUUUUAUAACAUUACCAUCCUUCGUUUUGAACUACAGAUGUUGUAGUGGGUUUUGGAGGAG	0.948
AUCCAGUUCCUCUUGGUCUUCCUGCUUGGGAACGAGGAAGAUAAGUCUUUUCCUAUCCGAGAUUCUAGAGGAGGAAGACCUUGGGCUCCGACUACUUCAAAAUGAUCUGA	0.331
GGAGCAAGUGCCAAGCAGAACAGACCUUAUCAUCUGGGUAACAGACUUCUCAGUGUUGGUGCUGUGUCUGUUAGAGCCUUAGAGCAAGUUAAGCACUUCCUUGGUGUGGG	0.264
CAGGGUUGUCUAGAGGAGUGGGGAGAUGACUUUGGGGGUUCUCCUGAUUCAGUGCCAAUAGCCACAGUGUGGCUCAAGAUACAGGUAGAGGGGCUACACUAGCCCACCCC	0.659
UUUUAAAGUAGCUGUAAUUUUUAAAUAUUUCUAAACUUUUCUUAAACCACUAAAAUUAAGCUCUUACUACUUAGUCAACUAUCCUCAGCUGUAUUCGUACUCAAUUGUCA	1.3

Excerpt of the above (sample 3):
Variant	normalised enrichment score
PSACRNLFGPVDL [H13L]	6.77
PSACRNLFGPSDH [V11S]	7.21
PSACRNLQGPVDH [F8Q]	0.111
PSACANAFGPVDH [R5A L7A]	-0.215
PSACRNLFGEVDH [P10E]	6.72
PSACRNLWGPVDH [F8W]	1.43
PSACRNLTGPVDH [F8T]	0.481
PSAFRNLFGPVDH [C4F]	3.18
PSWCRNLFGPVDH [A3W]	4.57
PSACRNLFGPVDV [H13V]	6.88
DSACRNLFGPVDH [P1D]	3.4
PQACRNLFGPVDH [S2Q]	7.06
PCACRNLFGPVDH [S2C]	5.04
PSACRNLFGPVDR [H13R]	7.79
PSAWRNLFGPVDH [C4W]	2.09
PSACRNLFGPVAH [D12A]	7.76
